Measurements gathered from unrelated publications.
Every numbered part comes from another study and shows a few of its results, in no order.
UniProt Q9Y6M4, sequence (whole entry, looked up): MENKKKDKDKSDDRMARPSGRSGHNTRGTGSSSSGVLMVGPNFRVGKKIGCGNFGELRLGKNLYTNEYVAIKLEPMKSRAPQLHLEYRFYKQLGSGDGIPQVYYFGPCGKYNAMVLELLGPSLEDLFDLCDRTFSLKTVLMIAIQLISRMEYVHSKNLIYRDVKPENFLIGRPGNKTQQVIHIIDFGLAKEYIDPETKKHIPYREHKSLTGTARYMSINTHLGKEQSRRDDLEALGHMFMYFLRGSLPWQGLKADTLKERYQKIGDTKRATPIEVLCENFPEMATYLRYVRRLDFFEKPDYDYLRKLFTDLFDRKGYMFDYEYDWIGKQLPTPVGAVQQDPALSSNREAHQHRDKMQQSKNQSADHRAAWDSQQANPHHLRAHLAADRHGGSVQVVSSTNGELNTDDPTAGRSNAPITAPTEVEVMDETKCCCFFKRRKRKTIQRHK
UniProt Q13233, sequence (whole entry, looked up): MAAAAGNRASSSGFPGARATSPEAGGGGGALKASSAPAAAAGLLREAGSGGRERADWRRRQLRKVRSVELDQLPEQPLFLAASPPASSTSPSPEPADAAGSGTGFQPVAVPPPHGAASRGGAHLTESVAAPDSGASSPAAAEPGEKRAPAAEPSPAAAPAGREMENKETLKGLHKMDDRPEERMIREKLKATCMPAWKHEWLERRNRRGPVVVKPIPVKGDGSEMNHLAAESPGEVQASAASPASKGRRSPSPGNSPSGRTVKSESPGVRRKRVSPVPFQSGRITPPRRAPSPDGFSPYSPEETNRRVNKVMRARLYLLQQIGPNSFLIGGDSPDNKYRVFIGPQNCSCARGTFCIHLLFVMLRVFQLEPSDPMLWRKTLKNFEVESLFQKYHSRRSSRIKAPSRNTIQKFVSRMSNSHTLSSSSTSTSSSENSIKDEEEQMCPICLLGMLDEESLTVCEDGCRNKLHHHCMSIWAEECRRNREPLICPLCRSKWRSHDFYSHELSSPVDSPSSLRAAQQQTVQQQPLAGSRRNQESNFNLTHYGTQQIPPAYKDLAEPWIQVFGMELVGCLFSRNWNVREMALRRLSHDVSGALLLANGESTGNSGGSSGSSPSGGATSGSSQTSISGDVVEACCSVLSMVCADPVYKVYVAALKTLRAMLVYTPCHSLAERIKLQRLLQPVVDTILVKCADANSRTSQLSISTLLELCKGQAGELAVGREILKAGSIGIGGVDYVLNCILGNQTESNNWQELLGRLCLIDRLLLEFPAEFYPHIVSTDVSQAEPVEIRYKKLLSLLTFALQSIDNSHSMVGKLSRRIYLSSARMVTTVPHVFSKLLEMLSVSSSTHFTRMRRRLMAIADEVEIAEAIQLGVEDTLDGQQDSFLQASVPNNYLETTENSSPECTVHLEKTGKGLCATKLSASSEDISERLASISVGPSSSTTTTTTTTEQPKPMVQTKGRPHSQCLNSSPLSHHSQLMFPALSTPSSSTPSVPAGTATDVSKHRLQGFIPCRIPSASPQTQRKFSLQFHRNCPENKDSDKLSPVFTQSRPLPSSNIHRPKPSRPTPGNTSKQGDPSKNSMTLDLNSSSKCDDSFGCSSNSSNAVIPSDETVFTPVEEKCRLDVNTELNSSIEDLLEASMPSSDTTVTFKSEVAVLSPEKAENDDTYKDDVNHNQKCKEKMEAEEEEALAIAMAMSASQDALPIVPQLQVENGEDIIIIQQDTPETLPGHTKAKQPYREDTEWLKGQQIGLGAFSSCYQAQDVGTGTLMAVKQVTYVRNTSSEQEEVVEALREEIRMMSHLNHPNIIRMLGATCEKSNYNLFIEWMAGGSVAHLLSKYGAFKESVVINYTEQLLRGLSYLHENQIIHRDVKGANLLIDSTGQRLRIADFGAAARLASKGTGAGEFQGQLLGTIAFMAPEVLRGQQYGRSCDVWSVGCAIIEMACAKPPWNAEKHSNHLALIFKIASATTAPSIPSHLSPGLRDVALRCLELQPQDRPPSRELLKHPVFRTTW
UniProt O00311, sequence (whole entry, looked up): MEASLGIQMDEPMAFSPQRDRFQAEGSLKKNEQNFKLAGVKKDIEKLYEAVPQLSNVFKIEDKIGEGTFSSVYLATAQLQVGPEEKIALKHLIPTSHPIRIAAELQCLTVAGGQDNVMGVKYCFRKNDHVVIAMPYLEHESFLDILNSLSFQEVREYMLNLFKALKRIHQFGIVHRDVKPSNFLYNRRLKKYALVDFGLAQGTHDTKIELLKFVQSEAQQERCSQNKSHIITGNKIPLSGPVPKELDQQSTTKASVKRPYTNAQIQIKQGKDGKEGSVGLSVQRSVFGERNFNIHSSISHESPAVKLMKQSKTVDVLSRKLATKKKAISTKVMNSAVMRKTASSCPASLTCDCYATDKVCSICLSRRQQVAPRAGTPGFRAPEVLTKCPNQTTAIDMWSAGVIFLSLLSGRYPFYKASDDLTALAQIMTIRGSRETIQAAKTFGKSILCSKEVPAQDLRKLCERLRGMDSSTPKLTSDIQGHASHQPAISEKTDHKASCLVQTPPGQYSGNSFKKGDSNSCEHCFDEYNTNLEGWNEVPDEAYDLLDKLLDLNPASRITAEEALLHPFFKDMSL
UniProt Q13177, sequence (whole entry, looked up): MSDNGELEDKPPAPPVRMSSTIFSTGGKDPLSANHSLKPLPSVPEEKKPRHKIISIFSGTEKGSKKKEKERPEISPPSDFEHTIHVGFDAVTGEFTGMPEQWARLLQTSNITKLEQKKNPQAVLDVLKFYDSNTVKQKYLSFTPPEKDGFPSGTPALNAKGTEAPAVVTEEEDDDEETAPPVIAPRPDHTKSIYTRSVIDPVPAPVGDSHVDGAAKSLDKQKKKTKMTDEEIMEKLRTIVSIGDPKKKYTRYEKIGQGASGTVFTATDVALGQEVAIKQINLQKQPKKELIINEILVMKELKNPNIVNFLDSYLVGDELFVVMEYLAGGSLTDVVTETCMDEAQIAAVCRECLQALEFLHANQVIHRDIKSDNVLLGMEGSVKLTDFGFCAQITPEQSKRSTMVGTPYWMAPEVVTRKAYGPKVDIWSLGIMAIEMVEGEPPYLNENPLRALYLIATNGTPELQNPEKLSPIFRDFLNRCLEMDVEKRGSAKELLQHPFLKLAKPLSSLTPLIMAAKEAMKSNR
UniProt O96013, sequence (whole entry, looked up): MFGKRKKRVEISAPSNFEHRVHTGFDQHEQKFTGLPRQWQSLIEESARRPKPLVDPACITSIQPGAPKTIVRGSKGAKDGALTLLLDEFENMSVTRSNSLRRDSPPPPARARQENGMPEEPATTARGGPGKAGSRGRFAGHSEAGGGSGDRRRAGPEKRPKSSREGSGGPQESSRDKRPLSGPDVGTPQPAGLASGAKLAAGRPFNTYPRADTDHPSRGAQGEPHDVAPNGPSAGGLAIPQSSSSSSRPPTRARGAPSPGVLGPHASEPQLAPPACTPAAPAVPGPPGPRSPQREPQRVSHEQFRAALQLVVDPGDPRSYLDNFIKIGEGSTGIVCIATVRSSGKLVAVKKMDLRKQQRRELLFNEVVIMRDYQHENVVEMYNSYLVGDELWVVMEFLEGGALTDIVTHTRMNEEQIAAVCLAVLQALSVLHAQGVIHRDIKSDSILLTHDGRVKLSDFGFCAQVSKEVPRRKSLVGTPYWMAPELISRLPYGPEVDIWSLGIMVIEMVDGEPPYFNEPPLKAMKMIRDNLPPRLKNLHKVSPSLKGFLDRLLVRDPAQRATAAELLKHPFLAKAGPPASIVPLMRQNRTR
UniProt Q9Y2H1, sequence (whole entry, looked up): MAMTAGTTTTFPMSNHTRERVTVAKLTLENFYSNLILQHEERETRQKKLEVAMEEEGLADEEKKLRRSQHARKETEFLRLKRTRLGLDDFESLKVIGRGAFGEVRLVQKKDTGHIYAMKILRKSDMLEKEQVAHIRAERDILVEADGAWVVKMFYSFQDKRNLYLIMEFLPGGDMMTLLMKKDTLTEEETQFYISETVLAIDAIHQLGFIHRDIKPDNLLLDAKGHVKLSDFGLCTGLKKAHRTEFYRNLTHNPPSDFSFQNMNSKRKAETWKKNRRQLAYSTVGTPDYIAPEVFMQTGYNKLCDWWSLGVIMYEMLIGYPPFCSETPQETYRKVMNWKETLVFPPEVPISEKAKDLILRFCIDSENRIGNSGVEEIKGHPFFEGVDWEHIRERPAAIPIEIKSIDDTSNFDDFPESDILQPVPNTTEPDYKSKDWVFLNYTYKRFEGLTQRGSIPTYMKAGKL

Study 1 — effect on: enzyme activity; mode: inhibitor; concentration: 0.5 µM; relative to: control
SMILES: COc1ccc2c(c1)c(C1=C(c3c[nH]c4ccccc34)C(=O)NC1=O)cn2CCCN(C)C
target	remaining activity
SGK1 (Homo sapiens, UniProt O00141)	99.5%
NUAK1 (Homo sapiens, UniProt O60285)	32.2%
SRPK3 (Homo sapiens, UniProt Q9UPE1)	89.5%
MYLK (Homo sapiens, UniProt Q15746)	66.9%
EPHB2 (Homo sapiens, UniProt P29323)	78.7%
GRK2 (Homo sapiens, UniProt P25098)	99%
Aurora kinase C (AURKC, Homo sapiens, UniProt Q9UQB9)	90.3%
FGFR4 (Homo sapiens, UniProt P22455)	79.2%
GRK6 (Homo sapiens, UniProt P43250)	96.2%
EPHA7 (Homo sapiens, UniProt Q15375)	88.8%
BMX (Homo sapiens, UniProt P51813)	96.3%
RPS6KB1 (Homo sapiens, UniProt P23443)	19.7%
PIM2 (Homo sapiens, UniProt Q9P1W9)	90.5%
CSK (Homo sapiens, UniProt P41240)	84%
PAK2 (Homo sapiens, UniProt Q13177)	108%
PRKCG (Homo sapiens, UniProt P05129)	54%
RPS6KA1 (Homo sapiens, UniProt Q15418)	16%
FLT3 (Homo sapiens, UniProt P36888)	23.2%
CSF1R (Homo sapiens, UniProt P07333)	92.8%
PRKCE (Homo sapiens, UniProt Q02156)	14.6%

Study 2 — method: Phase 2a trial; host: idiopathic pulmonary fibrosis patients
Compound: CC(C)n1cnc(-c2ccc(F)cc2)c1-c1ncc(C(=O)Nc2ccc(N3CCN(C)CC3)cc2)[nH]1
assay	setting	patients with adverse events [%]
measured: muscular weakness	dose not given, grade 2 maximum intensity, all arms	0
measured: oral herpes	oral, dose not given, grade 3 maximum intensity, all arms	0
measured: eye disorders (SOC)	dose not given, grade 3 maximum intensity, all arms	0
measured: eye disorders (SOC)	dose not given, grade 5 maximum intensity, all arms	0
measured: bile acids increased	60 mg once daily, grade 3 maximum intensity	0
measured: vision blurred	60 mg once daily, grade 3 maximum intensity	0
measured: back pain	dose not given, grade 5 maximum intensity, all arms	0
measured: muscular weakness	60 mg once daily, grade 4 maximum intensity	0
measured: blood creatine phosphokinase increased	30 mg once daily, grade 4 maximum intensity	0
measured: urinary tract infection	60 mg once daily, grade 1 maximum intensity	0
measured: tri-iodothyronine increased	60 mg once daily, grade 5 maximum intensity	0
measured: chest discomfort	dose not given, grade 3 maximum intensity, all arms	0
measured: blood creatine phosphokinase increased	60 mg once daily, grade 3 maximum intensity	0

Study 3 — concentration: 5 µM
SMILES: O=C(Nc1cnn(-c2csc(C(=O)NC3COC3)c2)c1)Nc1c(F)cccc1Cl
KSR2: Kinase suppressor of Ras 2 (KSR2, Homo sapiens, UniProt Q6VAB6)
UniProt Q6VAB6, sequence (whole entry, looked up): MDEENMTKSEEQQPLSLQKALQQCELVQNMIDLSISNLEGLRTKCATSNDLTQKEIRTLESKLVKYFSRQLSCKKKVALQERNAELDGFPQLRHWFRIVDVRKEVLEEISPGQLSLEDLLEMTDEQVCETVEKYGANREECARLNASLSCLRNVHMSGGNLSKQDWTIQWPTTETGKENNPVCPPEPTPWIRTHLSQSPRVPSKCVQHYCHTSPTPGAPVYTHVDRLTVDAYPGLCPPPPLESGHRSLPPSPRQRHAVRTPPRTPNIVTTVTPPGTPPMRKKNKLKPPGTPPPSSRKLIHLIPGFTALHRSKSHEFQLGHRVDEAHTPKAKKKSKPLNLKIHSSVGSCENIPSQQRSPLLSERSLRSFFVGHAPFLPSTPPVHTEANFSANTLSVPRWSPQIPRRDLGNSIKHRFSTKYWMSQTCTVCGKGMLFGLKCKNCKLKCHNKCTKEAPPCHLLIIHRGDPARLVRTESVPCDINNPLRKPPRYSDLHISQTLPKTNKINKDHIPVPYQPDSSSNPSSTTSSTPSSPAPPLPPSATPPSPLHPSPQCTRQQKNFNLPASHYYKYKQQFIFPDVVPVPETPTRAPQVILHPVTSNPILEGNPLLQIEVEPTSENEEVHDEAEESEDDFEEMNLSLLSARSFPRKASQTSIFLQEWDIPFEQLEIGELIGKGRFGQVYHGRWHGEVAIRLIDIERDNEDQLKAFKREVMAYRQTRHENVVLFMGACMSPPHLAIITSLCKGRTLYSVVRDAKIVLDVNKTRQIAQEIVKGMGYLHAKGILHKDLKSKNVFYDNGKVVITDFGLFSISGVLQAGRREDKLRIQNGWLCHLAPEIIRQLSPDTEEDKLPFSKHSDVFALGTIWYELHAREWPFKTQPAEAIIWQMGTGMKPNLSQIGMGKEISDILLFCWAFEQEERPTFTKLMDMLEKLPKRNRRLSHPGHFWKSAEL
target	assay	how to read	remaining activity
ERN2 (Homo sapiens, UniProt Q76MJ5)	enzyme activity, inhibitor		100%
MYLK2 (Homo sapiens, UniProt Q9H1R3)	enzyme activity	relative to: untreated control	79.4%
STK38L (Homo sapiens, UniProt Q9Y2H1)	enzyme activity	relative to: untreated control	93%
Cell division cycle 7-related protein kinase, with DBF4 (CDC7, Homo sapiens, UniProt O00311)	kinase activity, kinase panel profiling		84.3%
PKN3 (Homo sapiens, UniProt Q6P5Z2)	enzyme activity	relative to: untreated control	76.2%
TAOK1 (Homo sapiens, UniProt Q7L7X3)	enzyme activity	relative to: untreated control	89.6%
KSR1 (Homo sapiens, UniProt Q8IVT5)	enzyme activity	relative to: untreated control	100%
MAPK3 (Homo sapiens, UniProt P27361)	enzyme activity	relative to: untreated control	92.1%
CDK7 (Homo sapiens, UniProt P50613)	enzyme activity	relative to: untreated control	94.9%
NEK5 (Homo sapiens, UniProt Q6P3R8)	enzyme activity	relative to: untreated control	87.9%
ZAP70 (Homo sapiens, UniProt P43403)	enzyme activity	relative to: untreated control	104%
PAK4 (Homo sapiens, UniProt O96013)	enzyme activity	relative to: untreated control	105%
TESK2 (Homo sapiens, UniProt Q96S53)	enzyme activity, inhibitor		80.1%
PRKD2 (Homo sapiens, UniProt Q9BZL6)	enzyme activity	relative to: untreated control	98.1%
BTK (Homo sapiens, UniProt Q06187)	enzyme activity	relative to: untreated control	89%
PIM3 (Homo sapiens, UniProt Q86V86)	enzyme activity	relative to: untreated control	73.1%
MUSK (Homo sapiens, UniProt O15146)	enzyme activity	relative to: untreated control	86.2%
CSNK1G3 (Homo sapiens, UniProt Q9Y6M4)	enzyme activity	relative to: untreated control	91.2%
KSR2	enzyme activity, inhibitor		92.7%
MAP3K1 (Homo sapiens, UniProt Q13233)	enzyme activity	relative to: untreated control	98.5%
MAP3K11 (Homo sapiens, UniProt Q16584)	enzyme activity	relative to: untreated control	83.4%
KSR2	enzyme activity	relative to: untreated control	91.9%

Study 4 — Compound: CC(C)(O)c1cncc(-c2nc3ccc(F)cc3n2C2CC2)c1; effect on: binding; method: radioligand binding; concentration: 10 µM
target	inhibition [%]
HTR2B (Homo sapiens, UniProt P41595)	63.1
HTR5A (Homo sapiens, UniProt P47898)	-9.57
HTR3A (Homo sapiens, UniProt P46098)	-6.88

Some of these lines once more (study 1):
target	remaining activity
FLT3 (Homo sapiens, UniProt P36888)	23.2%
EPHB2 (Homo sapiens, UniProt P29323)	78.7%
Aurora kinase C (AURKC, Homo sapiens, UniProt Q9UQB9)	90.3%
MYLK (Homo sapiens, UniProt Q15746)	66.9%
EPHA7 (Homo sapiens, UniProt Q15375)	88.8%
